# Measured values gathered from unrelated publications.
# Compare with care: the assays were run in different laboratories. “And” joins repeats or separate records; there may be more than shown. Numbers after ± are the reported error.
Compound,tested on,test,test system,conditions,scale,measurement,value
CC1(C)NC(=O)N(c2ccc(F)c(C(F)(F)F)c2)C1=O,Schistosoma mansoni,,NSG mouse,"oral, 100 mg/kg single dose, not statistically significant",,worm burden reduction,8%
CC[C@H](C)[C@H](NC(=O)[C@H](CCCCN)NC(=O)[C@@H](NC(=O)[C@@H](NC(=O)[C@H](CC(C)C)NC(=O)[C@H](CCCNC(=N)N)NC(=O)[C@@H](NC(=O)[C@H](CC(C)C)NC(=O)[C@H](CCCNC(=N)N)NC(=O)CNC(=O)[C@H](Cc1ccccc1)NC(=O)[C@@H](N)CCCNC(=N)N)[C@@H](C)CC)[C@@H](C)CC)C(C)C)C(=O)N[C@@H](C)C(=O)N[C@@H](CCCNC(=N)N)C(=O)N[C@@H](CCCNC(=N)N)C(=O)N[C@@H](C)C(=O)N[C@@H](Cc1c[nH]cn1)C(=O)N[C@@H](CCCNC(=N)N)C(=O)N[C@@H](C)C(=O)N[C@@H](CCCNC(=N)N)C(=O)N[C@@H](CO)C(=O)N[C@@H](C)C(=O)N[C@H](C(=O)N[C@@H](CCCCN)C(=O)N[C@@H](C)C(=O)N[C@@H](C)C(=O)N[C@@H](CO)C(=O)N[C@@H](CC(N)=O)C(=O)N[C@H](C(=O)N[C@@H](C)C(=O)N[C@@H](CCC(=O)O)C(=O)N[C@@H](CC(C)C)C(=O)N[C@@H](C)C(=O)N[C@@H](Cc1c[nH]cn1)C(=O)NCC(=O)N[C@@H](CCC(=O)O)C(=O)O)C(C)C)C(C)C,SH-SY5Y,"membrane disruption, propidium iodide uptake",,"600 s, together with: propidium iodide 50 µM",,EC50,1870 ± 260 nM
C[C@@H](O[C@H]1OCCN(Cc2n[nH]c(=O)[nH]2)[C@H]1c1ccc(F)cc1)c1cc(C(F)(F)F)cc(C(F)(F)F)c1,Human immunodeficiency virus 1,viral replication,"PBMC, subtype A isolate from Uganda, R5, NSI",,,IC50,5650 nM
COc1cc(CCC[P+](c2ccccc2)(c2ccccc2)c2ccccc2)c(OC)c2c1OCO2.[I-],MOLT-4,SRB,,,,LC50,> -4 log M
CCCCCc1cc(O)c2c(c1)OC(C)(C)[C@@H]1CCC(C)=C[C@@H]21,,"antinociception (tail withdrawal), warm water tail withdrawal","ICR mouse, male",intravenous,,ED50,12 µmol/kg
CN1C(=O)CN=C(c2ccccc2)c2cc(Cl)ccc21,"rat central GABAA receptor, flunitrazepam site",radioligand binding,,,,IC50,19 nM
O=C(O)c1ccc(-c2ccc(C(=O)O)cc2/N=N/c2cccc(Br)c2)cc1,Schistosoma mansoni,microscopic viability scoring,newly transformed schistosomula,"10 µM, 72 h, prescreen",,viability reduction,10%
OC(Cn1cncn1)(Cn1cncn1)c1ccc(F)cc1F,Saccharomyces cerevisiae,cell growth,"Pdr5 deleted, empty vector",2^-1.322 µg/mL,,OD600,0.101 and 0.094 and 0.087
COc1ccc(-n2nc(C(C)=O)s/c2=N\N=C(/C)c2ccc(NC(C)=O)cc2)cc1,HepG2,,,0.078 µM,,viability,91%
O=C(Nc1cccnn1)N1CCN([C@@H]2CCOc3cc(C(F)(F)F)ccc32)CC1,"L-type calcium channel, diltiazem site",binding,,20 µM,,inhibition,28%
CN1CCN(S(=O)(=O)c2cc([N+](=O)[O-])ccc2N(CCOS(C)(=O)=O)CCOS(C)(=O)=O)CC1,,,"NSG mice, sample BD PDX","intraperitoneal, 25 mg/kg weekly x3",reference: vehicle,EFS delay (T-C),1.6 days
CC[C@H](C)[C@@H]1NC(=O)[C@@H]2CCCN2C(=O)[C@H](CC(C)C)NC(=O)[C@H](CC(C)C)NC(=O)CNC(=O)[C@@H](NC(=O)[C@@H](NC(=O)[C@H](CC(=O)O)NC(=O)CNC(=O)[C@@H](NC(=O)[C@H](C)NC(=O)CNC(=O)[C@H](CCCCN)NC(=O)[C@H](CC(C)C)NC(=O)[C@H](CC(C)C)NC(=O)[C@H](CCCCN)NC(=O)CNC(=O)[C@@H](NC(=O)[C@@H](N)CC(C)C)C(C)C)C(C)C)C(C)C)CSSC[C@@H](C(=O)O)NC1=O,,"RNA-seq, item: Ghrhr mRNA","mouse traumatic brain injury, frontal cortex and hippocampus",dose not given,reference: TBI plus compound vs TBI,log2 fold change,-6.68
COc1c(CCC[P+](c2ccccc2)(c2ccccc2)c2ccccc2)cc2c(c1OC)OCO2.[I-],SF-268,SRB,,,,TGI,-4.88 log M
C[C@]12CC[C@H]3[C@@H](CC=C4CC(O)CC[C@@]43CO)[C@@H]1CCC2O (stereo partly shown),,,GAN diet MASH rats,"ip, 20 mg/kg, two weeks",reference: GAN vehicle,liver TAG level,decreased
CCCCC1(CCCC)CN(c2ccccc2)c2cc(SC)c(OCC(=O)N[C@@H](C(=O)NCC(=O)O)c3ccccc3)cc2S(=O)(=O)C1,,item: HDL cholesterol,"human, serum","15 mg once daily, day 13",,serum HDL-C,42.9 mg/dL
CC(/N=N/c1ccc(F)cc1)=C1SCCCS1,Schistosoma mansoni,microscopic viability score,adult worms,10 µM,,viability reduction,70%
CC[C@H](C)[C@H](NC(=O)[C@H](C)NC(=O)[C@H](CCCCN)NC(=O)[C@H](CC(C)C)NC(=O)[C@H](C)NC(=O)[C@@H](NC(=O)[C@H](Cc1c[nH]cn1)NC(=O)[C@H](CC(C)C)NC(=O)[C@@H](NC(=O)[C@@H](NC(=O)[C@H](CCCCN)NC(=O)[C@H](C)NC(=O)[C@H](C)NC(=O)[C@H](CO)NC(=O)[C@H](CCCCN)NC(=O)[C@H](Cc1ccccc1)NC(=O)[C@@H](NC(=O)[C@H](CCCCN)NC(=O)[C@H](CC(C)C)NC(=O)[C@H](Cc1ccccc1)NC(=O)[C@H](CO)NC(=O)[C@H](CCCCN)NC(=O)[C@H](Cc1c[nH]c2ccccc12)NC(=O)[C@H](CCCCN)NC(C)=O)[C@@H](C)O)[C@@H](C)O)C(C)C)[C@@H](C)O)C(=O)N[C@@H](CO)C(=O)N[C@@H](CO)C(N)=O,Acinetobacter baumannii,,ATCC 19606,,,MIC90,2 µg/mL
C[C@@H]1C[C@@]2(N=CCS2)[C@]2(O)O[C@@H]3C[C@@]4(C=O)[C@@H](CC[C@@H]5[C@@H]4CC[C@]4(C)[C@@H](C6=CC(=O)OC6)CC[C@]54O)C[C@H]3O[C@@H]2O1,Schistosoma mansoni,microscopic viability score,adult worms,"1 µM, 72 h",,viability effect,100%
C#Cc1nc(C(=O)N2CCC(NC(=O)c3cnc(-c4ccccc4)s3)(c3nc4ccccc4n3C)CC2)cs1,STING (mouse),"inhibitor, ELISA",iBMDMs,"concentration not given, 24 h, together with: 500 nM diABZI",,IFNβ secretion,inhibited
COc1cccc(-c2cc(=O)c3ccccc3o2)c1N,RXFP1,,,together with: relaxin 10 fM,,relaxin-stimulated cAMP,no effect
CCOC(=O)CCCn1c(SCCOc2c(C)cccc2C)nc2ccccc21,Schistosoma mansoni,microscopic viability scoring,newly transformed schistosomula,"10 µM, 72 h, prescreen",,viability reduction,16.7%
C[C@]1(CO)Cc2ncn(-c3ccc(C#N)c(Cl)c3)c2C(=O)O1,aldosterone synthase,inhibitor,"human, plasma","40 and 80 mg, days 14 and 15, Japanese multiple ascending dose",reference: baseline,plasma 11-deoxycortisol,increased

# Excerpt of the above:
Compound,tested on,test,test system,conditions,scale,measurement,value
OC(Cn1cncn1)(Cn1cncn1)c1ccc(F)cc1F,Saccharomyces cerevisiae,cell growth,"Pdr5 deleted, empty vector",2^-1.322 µg/mL,,OD600,0.101 and 0.094 and 0.087
C[C@@H]1C[C@@]2(N=CCS2)[C@]2(O)O[C@@H]3C[C@@]4(C=O)[C@@H](CC[C@@H]5[C@@H]4CC[C@]4(C)[C@@H](C6=CC(=O)OC6)CC[C@]54O)C[C@H]3O[C@@H]2O1,Schistosoma mansoni,microscopic viability score,adult worms,"1 µM, 72 h",,viability effect,100%
